Experimental data from different studies.
Each line is one published result; not all experiments were run side by side. ± marks the error that the study gave.
Genome polyprotein NS2B-NS3 protease: Genome polyprotein, NS2B-NS3 protease (ZIKV, UniProt A0A024B7W1)
topA: DNA topoisomerase 1 (topA, Escherichia coli, UniProt P06612)
Genome polyprotein protease: Genome polyprotein, protease (dengue virus type 2, UniProt P29990)

`O=C(OC(C(F)(F)F)C(F)(F)F)N1CCC(C(O)(c2ccc3c(c2)OCO3)c2ccc3c(c2)OCO3)CC1` gave an IC50 of 4.87 µM (Abhd6 (Mus musculus, UniProt Q8R2Y0); competitive ABPP; mouse brain membrane proteome).
`Oc1ccc(-c2cc(-c3ccc(O)cc3)c(-c3ccc(O)cc3)[se]2)cc1` gave an IC50 of 10.4 µM (Estrogen receptor (ESR1, Homo sapiens, UniProt P03372); antagonist; HEK293T; added: estradiol 10 nM).
`Fc1ccc(C(OCCN2CCN(CCCc3ccccc3)CC2)c2ccc(F)cc2)cc1` gave an IC50 of 15.1 µM (KCNK18 (Homo sapiens, UniProt Q7Z418); ion flux, inhibitor).
`Phoxim oxon` has an IC50 of 0.0002 µM (rat liver carboxylesterase; enzyme activity, inhibitor; rat, postnatal day 1, liver homogenate; added: p-nitrophenyl valerate).
The IC50 of `Cc1sc2nc(-c3ccc(O)c(F)c3)[nH]c(=O)c2c1C` is reported as greater than 50 µM (Gag-Pol polyprotein, reverse transcriptase RNase H (gag-pol, Human immunodeficiency virus 1, UniProt P03366); RNase H activity, inhibitor, fluorescent RNA/DNA hybrid).
With `O=S(=O)(O)Oc1ccc(-c2ccc(Cl)cc2)c(Cl)c1` the IC50 was 46 ± 11 µM (SULT2A1 (Homo sapiens, UniProt Q06520); DHEA sulfation, inhibitor; pH 7.4, 37 °C, added: DHEA 1.0 µM).
For `CN1C(=O)[C@]23SS[C@@]1(C)C(=O)N2[C@H]1Nc2ccccc2[C@@]1([C@@]12c4ccccc4N[C@@H]1N1C(=O)[C@@]4(C)SS[C@]1(C(=O)N4C)[C@H]2O)[C@@H]3O`, the IC50 was greater than 10 µM (KMT2B (Homo sapiens, UniProt Q9UMN6); methyltransferase activity, inhibitor; added: 1 µM [3H]SAM).
For `CCCCN1C(=O)C(C=CC=CC=C2C(=O)N(c3ccc(S(=O)(=O)O)cc3)N=C2C)C(=O)N(CCCC)C1=O`, the IC50 was 1.04 ± 0.03 µM (SLC4A1 (Homo sapiens, UniProt P02730); chloride exchange, 36Cl flux; up to 15 s, 0 °C, initial binding, added: 150 mM chloride).
For `geissoschizine methyl ether`, the IC50 was 1.3 µM (rat nicotinic acetylcholine receptor; ion current, inhibitor; rat hippocampal neurons; added: acetylcholine 1 mM).
With `O=C(O)c1cc(-c2ccccc2Cl)n[nH]1` the IC50 was 0.339 ± 0.022 µM (ALPL (Homo sapiens, UniProt P05186); enzyme activity, inhibitor, luminescence; added: 0.1 M DEA, 50 µM CDP-star).
The IC50 of `CC(C)C[C@H](NC(=O)[C@H](Cc1c[nH]c2ccccc12)NC(=O)[C@H](C)NC(=O)OCc1ccccc1)C(=O)C(=O)Nc1ccccc1` is reported as 0.156 µM (Proteasome component C5/PSMB5, chymotrypsin-like site (Homo sapiens, UniProt P20618+P28074); enzyme activity in cells, inhibitor).
`O=C(O[C@@H]1Cc2c(O)cc(O)cc2O[C@@H]1c1cc(O)c(O)c2c(=O)c(O)cc([C@H]3Oc4cc(O)cc(O)c4C[C@H]3O)cc12)c1cc(O)c(O)c(O)c1` gave an IC50 of 8 µM (nuoF (Escherichia coli, UniProt P31979); deamino-NADH oxidase activity; 1100, membrane vesicles; added: 75 µM deamino-NADH).
For `NCc1ccc(-c2ncc(NCC3CCNCC3)nc2C(=O)Nc2ccc(Cl)cc2)cc1`, the IC50 was 17 µM (Genome polyprotein NS2B-NS3 protease; inhibitor; Zika virus).
The IC50 of `CSCC[C@H](NC(=O)[C@H](CO)NC(=O)[C@H](CO)NC(=O)[C@H](CC(C)C)NC(=O)[C@H](Cc1c[nH]cn1)NC(=O)[C@H](CCCCN)NC(=O)[C@@H](Cc1c[nH]c2ccccc12)NC(=O)[C@H](CC(C)C)NC(=O)[C@H](CC(N)=O)NC(=O)[C@H](Cc1c[nH]cn1)NC(=O)[C@H](CCSC)NC(=O)[C@@H](N)Cc1ccccc1)C(=O)N[C@@H](CCC(=O)O)C(=O)N[C@@H](CCCNC(=N)N)C(=O)N[C@H](C(=O)N[C@@H](CCC(=O)O)C(=O)N[C@@H](Cc1c[nH]c2ccccc12)C(=O)N[C@@H](CC(C)C)C(=O)N[C@@H](CCCNC(=N)N)C(=O)N[C@@H](CCCCN)C(=O)N[C@@H](CCCCN)C(=O)N[C@@H](CC(C)C)C(=O)N[C@@H](CCC(N)=O)C(=O)N[C@@H](CC(=O)O)C(=O)N[C@H](C(=O)N[C@@H](Cc1c[nH]cn1)C(=O)N[C@@H](CC(N)=O)C(=O)N[C@@H](Cc1ccccc1)C(N)=O)C(C)C)C(C)C` is reported as 0.00044 ± 0.00013 µM (PTH1R (Homo sapiens, UniProt Q03431); cAMP generation, antagonist, GloSensor luciferase; SGS-72; added: M-PTH(1-11) 10 nM).
For `CCCCCc1cc(O)cc(OC(=O)c2c(O)cc(O)cc2CCCCC)c1`, the IC50 was 250 to 500 µM (topA; enzyme activity, inhibitor; range shared with DNA gyrase).
`C/C=C(\NC(=O)[C@H](C)NC(=O)CCC)C(=O)N[C@@H]1C(=O)N[C@@H](CC(C)C)C(=O)N[C@H]2CC[C@@H](O)N(C2=O)[C@@H](Cc2ccccc2)C(=O)N(C)[C@@H](Cc2ccc(O)cc2)C(=O)N[C@@H](C(C)C)C(=O)O[C@@H]1C` has an IC50 of 0.35 µM (Chymotrypsinogen A (Bos taurus, UniProt P00766); enzyme activity, inhibitor; with preincubation).
`NCc1ccc(-c2ncc(OCC3CCNCC3)nc2-c2ccc(-c3cn[nH]c3)cc2)cc1` gave an IC50 of 0.71 µM (Genome polyprotein NS2B-NS3 protease; inhibitor; Zika virus).
For `[Cl-].[Na+]`, the IC50 was 97000 µM (OXA-48 (Klebsiella pneumoniae, UniProt Q6XEC0, del214-217/S212D); enzyme activity, inhibitor; pH 7.2, with preincubation).
`CC[C@H](C)[C@H](NC(=O)[C@@H](NC(=O)[C@@H](N)Cc1ccccc1)C(C)C)C(=O)N[C@@H](Cc1ccccc1)C(=O)N[C@@H](C)C(=O)N[C@@H](CS)C(=O)N[C@@H](CC(N)=O)C(=O)N[C@@H](Cc1ccccc1)C(=O)N[C@H](C(=O)O)C(C)C` gave an IC50 of 0.011 µM (HLA class I histocompatibility antigen, A alpha chain, allele A*02:02 (Homo sapiens, UniProt P04439); peptide binding, radiolabelled peptide competition; added: radiolabelled standard peptide).
With `NCCCOc1ccc(Cl)cc1C(=O)Nc1ccc([N+](=O)[O-])cc1Cl` the IC50 was 39.7 µM (Genome polyprotein protease; enzyme activity, inhibitor, FRET).
With `CC[C@H]1C[C@@H]2C[C@H]3c4[nH]c5ccccc5c4CCN(C2)[C@@H]13` the IC50 was greater than 10 µM (Slc18a2 (Rattus norvegicus, UniProt Q01827); [3H]5-HT uptake, inhibitor; rat brain synaptic vesicles; added: [3H]5-HT).
The IC50 of `Nc1ccc2c(c1)Oc1c(N3CC[C@@H](N)C3)c(F)cc3c(=O)c(C(=O)O)cn-2c13` is reported as 0.48 to 0.97 µM (topA; enzyme activity, inhibitor).
`O=C1OC2(c3cc(Cl)c(O)cc3Oc3cc(O)c(Cl)cc32)c2ccccc21` gave an IC50 of 180 ± 4.5 µM (Dual specificity protein phosphatase 5 (Homo sapiens, UniProt Q16690); phosphatase activity; 60 min, without DTT, added: pNPP).
`COc1cc(/C=C(\C#N)C(=O)Nc2nnc(C(F)(F)F)s2)ccc1OCc1ccc(C(F)(F)F)cc1C(F)(F)F` gave an IC50 of 3.97 ± 0.29 µM (PGC-1α/ERRα, human; reporter gene, antagonist, luciferase reporter).
`CC(C)C[C@H](NC(=O)CN)C(=O)N[C@@H](CCC(=O)O)C(=O)N1CCC[C@H]1C(=O)N[C@@H](CC(C)C)C(=O)N[C@@H](CC(=O)O)C(=O)N[C@@H](CC(C)C)C(=O)N[C@@H](CC(N)=O)C(=O)N[C@H](C(=O)N[C@@H](CO)C(=O)N[C@@H](C)C(=O)NCC(=O)N[C@@H](Cc1ccccc1)C(=O)N1CCC[C@H]1C(=O)N[C@@H](Cc1ccc(O)cc1)C(=O)N[C@H](C(=O)O)C(C)C)[C@@H](C)O` has an IC50 of less than 0.1 µM (HLA class I histocompatibility antigen, A alpha chain, allele A*02:01 (Homo sapiens, UniProt P04439); binding, competitive radioligand binding; 48 h, 37 °C, added: radiolabelled FLPSDYFPSV 1 nM).
With `Cc1cccc(C)c1OCC(=O)N[C@@H](Cc1ccccc1)[C@@H](O)C[C@H](Cc1ccccc1)NC(=O)[C@H](C(C)C)N1CCCNC1=O` the IC50 was 4.2 ± 0.6 µM (SLCO1B3 (Homo sapiens, UniProt Q9NPD5); transport, inhibitor; 10 (unit not given), pre-incubation, added: cholecystokinin).
With `CC(C)C[C@H](NC(=O)[C@H](CO)NC(=O)[C@H](Cc1c[nH]c2ccccc12)NC(=O)[C@H](Cc1ccc(O)cc1)NC(=O)[C@H](CC(=O)O)NC(=O)[C@H](CC(C)C)NC(=O)CN)C(=O)O` the IC50 was greater than 50 µM (Transcriptional regulator ComR (Streptococcus mutans serotype c, UniProt Q8DWI6); Streptococcus mutans).
The IC50 of `O=C(CNC(=S)NN=Cc1ccc([N+](=O)[O-])cc1)c1ccccc1O` is reported as 200.4 ± 0.21 µM (ache (Electrophorus electricus, UniProt O42275); enzyme activity, inhibitor, Ellman; added: acetylthiocholine).
`Oc1ccc(-c2nc3cc4nc5ccccc5nc4cc3[nH]2)c(O)c1` has an IC50 of 147 µM (Genome polyprotein protease; enzyme activity, inhibitor, fluorescence; pH 8.5).
The IC50 of `COc1cc(O)c2c(=O)cc(-c3ccccc3)oc2c1` is reported as 232 µM (NQO1 (Homo sapiens, UniProt P15559); enzyme activity, inhibitor).
For `C(#Cc1cc(C#CCCC[n+]2cccc(-c3ccccc3)c2)c(C#CCCC[n+]2cccc(-c3ccccc3)c2)cc1C#CCCC[n+]1cccc(-c2ccccc2)c1)CCC[n+]1cccc(-c2ccccc2)c1`, the IC50 was 0.00051 µM (Nicotinic acetylcholine receptor alpha9/alpha10 (Rattus norvegicus, UniProt P43144+Q9JLB5)).
With `CCCCCC[C@H]1C(=O)O[C@H](C)[C@H](NC(=O)c2cccc(NC=O)c2O)C(=O)O[C@@H](C)[C@@H]1OC(=O)CC(C)C` the IC50 was 0.24 µM (Mt-cyb (Rattus norvegicus, UniProt P00159); mitochondrial respiration, inhibitor; intact cortical neurons, rats, 9 months old; endogenous substrates).
For `CN1CCN(C2=Nc3ccccc3Oc3ccc(Cl)cc32)CC1`, the IC50 was greater than 100 µM (Beta-glucuronidase (uidA, Escherichia coli, UniProt P05804); enzyme activity, inhibitor; Escherichia coli live cells; 2 h, 37 °C).
For `CN[C@@](C)(C[18F])C(=O)O`, the tracer uptake was 2.7 %ID/g (DU-145 tumour model; host not given, heart; 15 min, tumour-bearing).

Excerpt of the above:
`COc1cc(/C=C(\C#N)C(=O)Nc2nnc(C(F)(F)F)s2)ccc1OCc1ccc(C(F)(F)F)cc1C(F)(F)F` gave an IC50 of 3.97 ± 0.29 µM (PGC-1α/ERRα, human; reporter gene, antagonist, luciferase reporter).
`O=C(OC(C(F)(F)F)C(F)(F)F)N1CCC(C(O)(c2ccc3c(c2)OCO3)c2ccc3c(c2)OCO3)CC1` gave an IC50 of 4.87 µM (Abhd6 (Mus musculus, UniProt Q8R2Y0); competitive ABPP; mouse brain membrane proteome).
For `[Cl-].[Na+]`, the IC50 was 97000 µM (OXA-48 (Klebsiella pneumoniae, UniProt Q6XEC0, del214-217/S212D); enzyme activity, inhibitor; pH 7.2, with preincubation).
With `CC[C@H]1C[C@@H]2C[C@H]3c4[nH]c5ccccc5c4CCN(C2)[C@@H]13` the IC50 was greater than 10 µM (Slc18a2 (Rattus norvegicus, UniProt Q01827); [3H]5-HT uptake, inhibitor; rat brain synaptic vesicles; added: [3H]5-HT).
